Assay results collected from several papers.
± gives the spread as reported.

| Compound | tested on | assay | test system | setting | scale | endpoint | result |
| --- | --- | --- | --- | --- | --- | --- | --- |
| COC1CN([C@H]2CC[C@H]([C@@]3(C)Oc4c(Cl)cc(C(=O)NCc5c(SC)cc(C)[nH]c5=O)c(C)c4O3)CC2)C1 | – | RNA-seq, item: RORB mouse homolog | mouse, HT-1376 xenograft, whole blood | dose not given | relative to: vehicle | log2 fold change | 2.3 |
| CN1CCCNC(=O)c2cccc(c2)C(=O)NCCCN(C)CCCNc2cccc3c2C(=O)c2cccc(c2C3=O)NCCC1 | SAS | RNA-Seq, item: PPME1 mRNA | – | 1 µM, 6 h | relative to: untreated cells | log2 fold change | -0.871 |
| COc1cc(O)ccc1CCC(c1ccc(O)cc1)c1cc2c(c(C)c1O)OC(c1ccc(O)cc1)CC2 (mixture of isomers) | – | – | human blood | 3 µM, together with: A23187 | – | DHA level | 120000 ± 23700 pg/mL |
| C=C(NC(=O)c1csc(-c2nc3c(cc2O)-c2nc(cs2)C(=O)NC(C(C)O)C(=O)NC(=C(C)OC)c2nc(cs2)C(=O)NC2c4nc(cs4)C(=O)NC(COC(=O)c4c5c6c(cccc6n4O)COC(=O)C(OC4CC(C)(O)C(N(C)C)C(C)O4)C2OC5)c2nc-3cs2)n1)C(N)=O (stereo not shown) | Streptococcus pneumoniae | – | -4, immunocompromised mice, lung infection, lung | 4 mg/kg/day once daily, 24 h post-dose | – | bacterial load | 6.78 log CFU/g |
| CCN(CC)CC(=O)Nc1cccc(-n2cc(-c3ccc4ccc(-c5cn(-c6cccc(NC(=O)CN(CC)CC)c6)nn5)cc4c3)nn2)c1 | RCC4 | PCR angiogenesis array, item: PTGS1 | – | 5 x IC50, 2 h, normoxia | relative to: untreated | fold regulation | 1.04 |
| O=C(N/N=C/c1cc[n+](Cc2ccccc2)c2ccccc12)c1ccc2ccc(C(=O)N/N=C/c3cc[n+](Cc4ccccc4)c4ccccc34)nc2n1 | myc22 MYC G4-DNA parallel | FRET melting | – | 1 µM, K1 buffer, DNA 0.2 µM | – | ΔTm | 16.1 ± 0.7 °C |
| C=CC(=O)Nc1cccc(Cn2ncc3cnc(Nc4cnn(CCOC)c4)nc32)c1 | CAMK2B human | binding, KINOMEscan | – | 100 nM | lower = stronger binding | percent of control | 99% |
| C[n+]1cccc2cc(/C=N/NC(=O)c3cncc(C(=O)N/N=C/c4ccc5c(ccc[n+]5C)c4)n3)ccc21 | myc22 MYC G4-DNA parallel | FRET melting | – | 1 µM, K1 buffer, DNA 0.2 µM | – | ΔTm | 19.5 ± 0.2 °C |
| Nc1ncc(-c2cc(-c3cnn(CC(F)(F)F)c3)ncc2F)nc1C(=O)NC1CNCC(F)C1 (stereo not shown) | MEK4 | KINOMEscan | – | 1 µM | relative to: DMSO control | remaining binding | 100% |
| O=C(N/N=C/c1ccc2c(ccc[n+]2Cc2ccccc2)c1)c1ccc2ccc3ccc(C(=O)N/N=C/c4ccc5c(ccc[n+]5Cc5ccccc5)c4)nc3c2n1 | myc22 MYC G4-DNA parallel | FRET melting | – | 1 µM, K1 buffer, DNA 0.2 µM, together with: ds26 10 µM | – | ΔTm | 19.1 ± 0.7 °C |
| CNS(=O)(=O)Nc1nccc(Cc2c(C)c3ccc(Oc4ncccc4F)cc3oc2=O)c1F | NCI-H1563 | cell viability | – | 7 days | – | IC50 | 830 nM |
| Cc1ncsc1-c1ccc(C(C)NC(=O)C2CC(O)CN2C(=O)C(NC(=O)CCCCCCCCCCN2CCCC(Nc3ncc(Cl)c(Nc4ccccc4S(=O)(=O)C(C)C)n3)C2)C(C)(C)C)cc1 (stereo not shown) | 22Rv1 | RNA-seq, item: ZNF181 mRNA | – | concentration not given | relative to: DMSO | log2 fold change | -1.12 |
| C[n+]1ccc(/C=N/NC(=O)c2ccc3ccc(C(=O)N/N=C/c4cc[n+](C)c5ccccc45)nc3n2)c2ccccc21 | myc22 MYC G4-DNA parallel | FRET melting | – | 1 µM, K1 buffer, DNA 0.2 µM | – | ΔTm | 23.1 ± 0.4 °C |

Excerpt of the above:
| Compound | tested on | assay | test system | setting | scale | endpoint | result |
| --- | --- | --- | --- | --- | --- | --- | --- |
| Cc1ncsc1-c1ccc(C(C)NC(=O)C2CC(O)CN2C(=O)C(NC(=O)CCCCCCCCCCN2CCCC(Nc3ncc(Cl)c(Nc4ccccc4S(=O)(=O)C(C)C)n3)C2)C(C)(C)C)cc1 (stereo not shown) | 22Rv1 | RNA-seq, item: ZNF181 mRNA | – | concentration not given | relative to: DMSO | log2 fold change | -1.12 |
| O=C(N/N=C/c1ccc2c(ccc[n+]2Cc2ccccc2)c1)c1ccc2ccc3ccc(C(=O)N/N=C/c4ccc5c(ccc[n+]5Cc5ccccc5)c4)nc3c2n1 | myc22 MYC G4-DNA parallel | FRET melting | – | 1 µM, K1 buffer, DNA 0.2 µM, together with: ds26 10 µM | – | ΔTm | 19.1 ± 0.7 °C |
